# Measurements from different studies.
# Every numbered part comes from another study and shows a few of its results, in no order. Substitutions count along the parent as printed.

# Sample 1
# Target: Histone acetyltransferase KAT6A, winged helix 2, GST fusion (KAT6A, Homo sapiens, UniProt Q92794, residues 85-181)
# Method: protein binding microarray
# Molecule type: double-stranded DNA, one strand shown
# Sample: in vitro
# Tested at: not given
# Notes: 8-mer, flanks averaged, mean of 2 arrays, mostly near background
# Relative to: not given
# Direction: higher = stronger binding
# Residues (chain): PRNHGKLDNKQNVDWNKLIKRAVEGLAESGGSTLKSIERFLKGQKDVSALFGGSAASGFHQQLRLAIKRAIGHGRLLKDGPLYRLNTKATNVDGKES
Strand,E-score
CTGGGTCA,-0.0795
AAAGCCCA,0.0966
ACCAGGCT,-0.0877
TGAGACCA,-0.00931
GACACTCA,-0.021
AGCCGTTA,0.00665
AAGTGCAC,-0.0284
ACTTGAGG,-0.118
CAGATATA,0.00658
GGCGAGCC,0.167
CGGAGATA,0.0947

# Sample 2
# Substance: PhoQ, residues 284 288 289 292 302 303 AGGCYF
# Method: Sort-seq
# Measured: YFP reporter
# Sample: E. coli
# Notes: PhoQ-PhoP variant library
# Added: 10 µM Mg2+
# Relative to: high Mg2+ state
# Direction: higher = stronger signaling
target,fold induction
"PhoP, residues 12 14 15 18 19 AYFRS (Escherichia coli, UniProt P23836)",16
"PhoP, residues 12 14 15 18 19 SFCSL (Escherichia coli, UniProt P23836)",18.2
"PhoP, residues 12 14 15 18 19 HHYTI (Escherichia coli, UniProt P23836)",3.71

# Sample 3
# Target: ABI1, truncated, D143A, DHFR fusion (Arabidopsis thaliana)
# Method: DHFR PCA, deep sequencing
# Sample: yeast
# Notes: methotrexate growth selection, single substitutions
# Added: (+)-ABA 0.11 µM
# Relative to: wild-type fitted maximum
# Direction: higher = stronger binding
# Starting sequence: PYL1, truncated, DHFR fusion (Arabidopsis thaliana); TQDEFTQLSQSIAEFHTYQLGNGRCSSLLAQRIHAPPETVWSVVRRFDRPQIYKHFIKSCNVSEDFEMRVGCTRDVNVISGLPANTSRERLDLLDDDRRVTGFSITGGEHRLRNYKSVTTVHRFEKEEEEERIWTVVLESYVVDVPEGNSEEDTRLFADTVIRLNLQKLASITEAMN
Change,relative binding score [%]
A158Q,16.1
T119E,-12
E14K,13
L82D,8.78
V118W,-2.78
Q51K,1.74
E38P,1.88
I172D,-13.2
D97S,24.9
I133W,11.9
I79D,2.92

# Sample 4
# Target: RING finger protein unkempt homolog, zinc fingers 1-6, GST-SBP tag (UNK, Homo sapiens, UniProt Q9C0B0, residues 30-357)
# UniProt Q9C0B0, sequence (30-357, looked up): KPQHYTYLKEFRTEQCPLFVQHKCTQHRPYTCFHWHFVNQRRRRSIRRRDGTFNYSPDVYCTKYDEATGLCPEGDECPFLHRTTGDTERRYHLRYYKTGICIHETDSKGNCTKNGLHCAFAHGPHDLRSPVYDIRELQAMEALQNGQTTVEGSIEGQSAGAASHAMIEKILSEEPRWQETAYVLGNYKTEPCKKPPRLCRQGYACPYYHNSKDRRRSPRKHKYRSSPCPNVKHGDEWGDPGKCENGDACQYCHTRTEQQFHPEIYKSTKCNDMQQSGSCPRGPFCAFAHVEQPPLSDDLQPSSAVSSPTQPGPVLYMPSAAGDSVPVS
# Method: RNA Bind-n-Seq
# Molecule type: RNA
# Sample: in vitro
# Tested at: not given
# Notes: RNA with constant flanks, ends assumed
# Relative to: input RNA pool
# Direction: higher = stronger binding
# Constant ends, left off below: GGGAGUUCUACAGUCCGACGAUC … CAACAGAGGAUUGAGCAUCA
Strand,bound/input enrichment [ratio]
CAGAUGAGGAAACUGAGGCCCAGAGAAGCGGAAAGGACUUCCCUAGACCUUACAGUAAAUCCGCAUUAAAUGCAGCCUUCCUACCUAGUGGGCACCUUGCUUACAAAAAUUUACCUAGGG,0.276
GCACAGCAGUUGUACAGCAGGGGUCCUCCUGCCCCUCAUAUUGUGGGAUCCACUCCCGGAUCUUUCCAAGGUGCUGCAUCGUCAGCAUCCCAUUUGCAUACGAGUGCCUCCCAACCAUAC,0.233
UUUGUAAAAUUGUCCUAAUCUUUCCUAGCUUUUUAAUAGUUAAUAUUAGAAACUCUUUAACCGUUUUCCUUUCAGUUUGUGAGCUCUUCUCUGUCGCCCUGAAGGGUCACUGUAUUCUGU,18.2
AUGGCAGCUCAUGUCAGUAGGGACAGAGUUAUAAAGAACUGUAUAGCCCAGACCUCAGCAGCCGUAAAAAGUCUCCGAGAAGAGAGAGAAAAGAACCUGGAUGACUUAACGUUAUUAAAG,0.329
CAGCGCCGAGGCCGCGGUUUCCCCCUGGGCCUCCCCAGCAGCAGCCAUGGGCAUCAAAUUUUCCGAAGUUAUCAAACCAUUCUGUGCAGUUCUACCAGAAAUUCAGAAACCGGAAAGGAA,0.292
AAGAGAAAGAAGGUUAAGCUGGCUGUCCUGAAAUAUUAUAAGGUGGAUGAGAAUGGCAAAAUCCGUCGCCUUCGUCGAGAGUGCCCUUCUGAUGAAUGUGGUGCUGGGGUGUUUAUGGCA,0.339
UCAAAAUUAUGGCAUCGUCAAAGCAUUGUGGUGUCUUUUUUACUGCUGCUUGCUGUGCUUACCGCUACGUAUUAUGUUGAAGGAGUGCAUCAACAGUAUGUGCAACGUAUAGAGAAACAG,0.228
ACUGUCCAGGAGGUUCACCCAGGAGAACCUCCAUUCGACCUAGAGCUUUUCUACGUUAAGUACCGAAAUUUUUCCUAUUUACAUUGUAAAUGGGCCACAAUGGAAGAACUGGAAAAGGAU,0.209

# Some of these lines once more (sample 4):
Strand,bound/input enrichment [ratio]
CAGAUGAGGAAACUGAGGCCCAGAGAAGCGGAAAGGACUUCCCUAGACCUUACAGUAAAUCCGCAUUAAAUGCAGCCUUCCUACCUAGUGGGCACCUUGCUUACAAAAAUUUACCUAGGG,0.276
GCACAGCAGUUGUACAGCAGGGGUCCUCCUGCCCCUCAUAUUGUGGGAUCCACUCCCGGAUCUUUCCAAGGUGCUGCAUCGUCAGCAUCCCAUUUGCAUACGAGUGCCUCCCAACCAUAC,0.233
UUUGUAAAAUUGUCCUAAUCUUUCCUAGCUUUUUAAUAGUUAAUAUUAGAAACUCUUUAACCGUUUUCCUUUCAGUUUGUGAGCUCUUCUCUGUCGCCCUGAAGGGUCACUGUAUUCUGU,18.2
AUGGCAGCUCAUGUCAGUAGGGACAGAGUUAUAAAGAACUGUAUAGCCCAGACCUCAGCAGCCGUAAAAAGUCUCCGAGAAGAGAGAGAAAAGAACCUGGAUGACUUAACGUUAUUAAAG,0.329
CAGCGCCGAGGCCGCGGUUUCCCCCUGGGCCUCCCCAGCAGCAGCCAUGGGCAUCAAAUUUUCCGAAGUUAUCAAACCAUUCUGUGCAGUUCUACCAGAAAUUCAGAAACCGGAAAGGAA,0.292
